Results from different studies.
Lines come from different studies, so protocols differ.
Organism: Klebsiella pneumoniae

C[C@@H](O)[C@H]1C(=O)N2C(C(=O)O)=C(SCCN=CN)C[C@H]12 — MIC (K4, after ceftazidime-avibactam induction; multistep mutant selection, avibactam 2731/4 mg/L): 128 µg/mL
CC[C@H](C)[C@H](NC(=O)[C@H](CC(C)C)NC(=O)[C@@H](NC(=O)[C@@H](NC(=O)[C@@H](NC(=O)[C@H](CCCNC(=N)N)NC(=O)[C@H](CCCNC(=N)N)NC(=O)[C@H](CCCNC(=N)N)NC(=O)[C@@H](N)CCCNC(=N)N)C(C)C)[C@@H](C)CC)[C@@H](C)CC)C(=O)N[C@@H](CO)C(=O)N[C@@H](CC(C)C)C(=O)N[C@@H](CCCNC(=N)N)C(=O)N[C@@H](CCCNC(=N)N)C(=O)N[C@@H](CCCNC(=N)N)C(=O)N[C@@H](CCCNC(=N)N)C(=O)N[C@@H](Cc1ccccc1)C(=O)N[C@@H](CO)C(=O)N[C@@H](C)C(=O)N[C@@H](Cc1ccc(O)cc1)C(N)=O — MIC (broth microdilution; ATCC 13883; highest value reported): 2 µM
CC[C@H](C)[C@H](N)C(=O)N[C@@H](CC(C)C)C(=O)NCC(=O)N[C@@H](CCC(=O)O)C(=O)N[C@H](C(=O)N[C@@H](Cc1c[nH]c2ccccc12)C(=O)N[C@@H](CCCCN)C(=O)NCC(=O)N[C@H](C(=O)N[C@@H](CCCCN)C(=O)N[C@@H](CC(=O)O)C(=O)N[C@H](C(=O)N[C@@H](CC(C)C)C(N)=O)[C@@H](C)CC)[C@@H](C)CC)[C@@H](C)CC — MIC (broth microdilution; ATCC 27736, Mueller-Hinton broth; 16 h, 37 °C): > 100 µM
CN(C)c1ccc(O)c2c1C[C@H]1C[C@H]3[C@H](N(C)C)C(O)=C(C(N)=O)C(=O)[C@@]3(O)C(O)=C1C2=O — MIC (broth microdilution; ATCC 43816 acrAB overexpressor; with: colistin 0.5 mg/L): 1 µg/mL
CC[C@@H](C)[C@@H](N)C(=O)N[C@@H](C(=O)N[C@H](Cc1ccc(O)cc1)C(=O)N[C@@H](C(=O)N[C@H](CCN)C(=O)N[C@H](CC(C)C)C(=O)N[C@H](CO)C(=O)N[C@H](CCN)C(=O)N[C@@H](C(=O)N[C@H](CCN)C(=O)N[C@H](Cc1c[nH]cn1)C(=O)N[C@H](CCN)C(=O)N[C@H](C)C(=O)N[C@H](CCN)C(=O)N[C@H](CCN)C(N)=O)[C@H](C)CC)[C@H](C)CC)[C@H](C)CC — MIC (broth microdilution; CDC 0005, Mueller-Hinton broth): 4 µg/mL
COc1ncc(O)c2c1C[C@H]1C[C@H]3[C@H](N(C)C)C(O)=C(C(N)=O)C(=O)[C@@]3(O)C(O)=C1C2=O.Cl.Cl — MIC (tet(A)-carrying): > 32 µg/mL
CC[C@H](C)[C@H](NC(=O)CN)C(=O)NCC(=O)N[C@@H](C)C(=O)N[C@H](C(=O)N[C@@H](CC(C)C)C(=O)N[C@@H](CCCCN)C(=O)N[C@H](C(=O)N[C@@H](CC(C)C)C(=O)N[C@H](C(=O)N[C@H](C(=O)NCC(=O)N[C@@H](CC(C)C)C(=O)N1CCC[C@H]1C(=O)N[C@@H](C)C(=O)N[C@@H](CC(C)C)C(=O)N[C@H](C(=O)N[C@@H](CO)C(=O)N[C@@H](Cc1c[nH]c2ccccc12)C(=O)N[C@H](C(=O)N[C@@H](CCCCN)C(=O)N[C@@H](CCCNC(=N)N)C(=O)N[C@@H](CCCCN)C(=O)N[C@@H](CCCNC(=N)N)C(=O)N[C@@H](CCC(N)=O)C(=O)N[C@@H](CCC(N)=O)C(N)=O)[C@@H](C)CC)[C@@H](C)CC)[C@@H](C)O)[C@@H](C)O)C(C)C)C(C)C — MIC (NCCP 15866 carbapenem-resistant): 16 µM
CC(=O)N[C@@H](CCCCN)C(=O)N[C@@H](CCCCN)C(=O)N[C@@H](C)C(=O)N[C@@H](CC(C)C)C(=O)N[C@@H](CCCCN)C(=O)N[C@@H](CC(C)C)C(=O)N[C@@H](C)C(=O)N[C@@H](CCCCN)C(=O)N[C@@H](CCCCN)C(=O)N1CCC[C@H]1C(=O)N[C@@H](CC(C)C)C(=O)N[C@@H](CCCCN)C(=O)N[C@@H](CC(C)C)C(=O)N[C@@H](CC(C)C)C(=O)N[C@@H](CCCCN)C(N)=O — MIC (broth microdilution; ATCC 700603; 18 h, 37 °C, compound alone): > 80 µM
COc1ccc2ccc(O)c(/C=N/[C@H]3CCCC[C@H]3/N=C/c3ccc(-c4ccccc4)cc3O)c2c1 — MIC (bacterial growth, broth microdilution; carbapenem-resistant clinical isolate): > 40 µM
CC[C@H](C)[C@H](NC(=O)[C@H](Cc1c[nH]c2ccccc12)NC(=O)[C@@H](NC(=O)[C@H](Cc1c[nH]c2ccccc12)NC(=O)[C@@H]1CCCN1C(=O)[C@@H](NC(=O)[C@H](C)N)[C@@H](C)CC)[C@@H](C)CC)C(=O)N[C@@H](Cc1c[nH]c2ccccc12)C(=O)N[C@@H](CCCNC(=N)N)C(=O)N[C@@H](CC(C)C)C(=O)N[C@@H](CC(C)C)C(=O)N[C@@H](CCCNC(=N)N)C(=O)N[C@@H](CCCCN)C(=O)NCC(N)=O — MIC (broth microdilution; ATCC 700603; 18 h, 37 °C): > 15 µM
